Measured values from different studies.
± marks the error that the study gave.
HRH2: Histamine H2 receptor (HRH2, Homo sapiens, UniProt P25021)
UniProt P25021, sequence (whole entry, looked up): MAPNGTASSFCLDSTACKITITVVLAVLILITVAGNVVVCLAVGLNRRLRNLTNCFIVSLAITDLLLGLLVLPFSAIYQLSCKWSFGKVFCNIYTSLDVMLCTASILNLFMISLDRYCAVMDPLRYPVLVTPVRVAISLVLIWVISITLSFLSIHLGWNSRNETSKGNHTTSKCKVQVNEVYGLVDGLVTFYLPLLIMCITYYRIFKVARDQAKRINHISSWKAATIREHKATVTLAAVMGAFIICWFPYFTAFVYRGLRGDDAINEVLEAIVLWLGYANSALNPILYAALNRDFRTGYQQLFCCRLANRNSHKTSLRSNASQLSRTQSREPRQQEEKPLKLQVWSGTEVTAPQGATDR
DRD4: D(4) dopamine receptor (DRD4, Homo sapiens, UniProt P21917)
UniProt P21917, sequence (whole entry, looked up): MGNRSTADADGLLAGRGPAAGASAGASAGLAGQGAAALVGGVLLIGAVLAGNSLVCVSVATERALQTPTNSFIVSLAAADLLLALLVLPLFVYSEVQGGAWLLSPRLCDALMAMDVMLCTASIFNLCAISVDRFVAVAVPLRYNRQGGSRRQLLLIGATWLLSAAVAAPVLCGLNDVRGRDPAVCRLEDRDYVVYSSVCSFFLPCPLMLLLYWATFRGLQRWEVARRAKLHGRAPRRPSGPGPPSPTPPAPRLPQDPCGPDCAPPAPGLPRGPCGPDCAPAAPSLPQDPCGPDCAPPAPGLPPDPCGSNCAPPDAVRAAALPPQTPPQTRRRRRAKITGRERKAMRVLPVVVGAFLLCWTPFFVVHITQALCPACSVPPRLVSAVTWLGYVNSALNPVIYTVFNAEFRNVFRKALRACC
UniProt Q9UHM6, sequence (whole entry, looked up): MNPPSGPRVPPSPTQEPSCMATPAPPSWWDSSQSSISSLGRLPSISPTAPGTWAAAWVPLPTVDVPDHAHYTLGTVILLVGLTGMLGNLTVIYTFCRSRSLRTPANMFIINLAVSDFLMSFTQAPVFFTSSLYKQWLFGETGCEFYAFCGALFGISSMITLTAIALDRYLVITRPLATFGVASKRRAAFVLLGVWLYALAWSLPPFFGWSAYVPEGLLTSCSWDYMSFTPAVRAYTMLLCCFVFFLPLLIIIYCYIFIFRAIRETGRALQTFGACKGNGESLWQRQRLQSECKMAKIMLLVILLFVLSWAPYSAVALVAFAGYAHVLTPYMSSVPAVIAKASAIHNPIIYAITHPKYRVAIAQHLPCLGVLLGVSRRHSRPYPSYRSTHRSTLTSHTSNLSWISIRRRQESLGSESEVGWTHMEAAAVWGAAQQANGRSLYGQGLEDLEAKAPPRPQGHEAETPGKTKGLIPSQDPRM
UniProt P48047, sequence (whole entry, looked up): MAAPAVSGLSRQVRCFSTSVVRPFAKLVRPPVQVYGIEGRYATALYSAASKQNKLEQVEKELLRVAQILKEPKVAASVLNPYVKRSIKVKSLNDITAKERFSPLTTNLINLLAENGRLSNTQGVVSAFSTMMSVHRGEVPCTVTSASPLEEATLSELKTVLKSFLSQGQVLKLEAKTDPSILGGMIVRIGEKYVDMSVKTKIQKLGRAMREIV
UniProt P28221, sequence (whole entry, looked up): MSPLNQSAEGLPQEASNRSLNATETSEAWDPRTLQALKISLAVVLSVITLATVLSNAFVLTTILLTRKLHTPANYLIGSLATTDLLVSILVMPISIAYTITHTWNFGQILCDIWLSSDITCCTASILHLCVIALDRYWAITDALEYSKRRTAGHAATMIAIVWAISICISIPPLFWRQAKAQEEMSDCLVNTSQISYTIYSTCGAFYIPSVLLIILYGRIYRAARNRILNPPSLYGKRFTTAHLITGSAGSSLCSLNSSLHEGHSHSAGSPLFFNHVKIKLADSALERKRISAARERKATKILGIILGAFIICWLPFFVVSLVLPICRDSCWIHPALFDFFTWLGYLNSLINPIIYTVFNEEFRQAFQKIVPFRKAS
UniProt P48146, sequence (whole entry, looked up): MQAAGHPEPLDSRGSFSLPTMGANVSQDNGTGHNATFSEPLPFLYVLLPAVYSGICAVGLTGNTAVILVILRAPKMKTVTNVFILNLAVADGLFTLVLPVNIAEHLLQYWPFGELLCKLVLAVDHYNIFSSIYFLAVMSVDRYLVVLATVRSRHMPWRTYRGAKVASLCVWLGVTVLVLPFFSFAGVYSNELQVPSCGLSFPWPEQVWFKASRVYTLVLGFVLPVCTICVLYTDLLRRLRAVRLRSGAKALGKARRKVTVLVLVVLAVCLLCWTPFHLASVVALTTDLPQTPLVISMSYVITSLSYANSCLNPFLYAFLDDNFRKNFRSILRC
UniProt Q969R2, sequence (whole entry, looked up): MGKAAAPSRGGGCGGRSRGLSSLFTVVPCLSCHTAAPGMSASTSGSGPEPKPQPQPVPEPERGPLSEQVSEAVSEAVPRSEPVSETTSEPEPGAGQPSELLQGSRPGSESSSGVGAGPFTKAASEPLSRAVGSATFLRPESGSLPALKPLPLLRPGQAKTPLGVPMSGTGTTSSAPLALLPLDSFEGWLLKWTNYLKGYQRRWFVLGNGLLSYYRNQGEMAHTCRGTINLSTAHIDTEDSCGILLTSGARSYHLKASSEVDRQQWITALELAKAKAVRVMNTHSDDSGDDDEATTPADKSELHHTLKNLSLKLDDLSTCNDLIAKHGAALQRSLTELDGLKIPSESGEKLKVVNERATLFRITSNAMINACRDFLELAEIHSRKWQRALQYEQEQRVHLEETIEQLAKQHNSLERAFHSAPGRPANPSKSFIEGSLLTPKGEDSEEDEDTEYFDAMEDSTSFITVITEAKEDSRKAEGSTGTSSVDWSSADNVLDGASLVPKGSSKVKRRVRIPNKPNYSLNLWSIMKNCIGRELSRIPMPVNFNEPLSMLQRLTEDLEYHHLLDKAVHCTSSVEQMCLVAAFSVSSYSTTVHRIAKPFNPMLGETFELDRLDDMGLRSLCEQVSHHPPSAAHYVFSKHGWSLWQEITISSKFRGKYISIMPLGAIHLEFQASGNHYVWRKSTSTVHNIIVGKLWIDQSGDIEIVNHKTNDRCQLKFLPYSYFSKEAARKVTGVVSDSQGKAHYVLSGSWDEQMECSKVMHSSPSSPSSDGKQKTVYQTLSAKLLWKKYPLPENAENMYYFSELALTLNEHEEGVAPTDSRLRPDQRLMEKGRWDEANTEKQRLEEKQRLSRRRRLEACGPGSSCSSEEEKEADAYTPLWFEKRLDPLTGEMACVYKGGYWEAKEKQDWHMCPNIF
UniProt Q9JYL2, sequence (whole entry, looked up): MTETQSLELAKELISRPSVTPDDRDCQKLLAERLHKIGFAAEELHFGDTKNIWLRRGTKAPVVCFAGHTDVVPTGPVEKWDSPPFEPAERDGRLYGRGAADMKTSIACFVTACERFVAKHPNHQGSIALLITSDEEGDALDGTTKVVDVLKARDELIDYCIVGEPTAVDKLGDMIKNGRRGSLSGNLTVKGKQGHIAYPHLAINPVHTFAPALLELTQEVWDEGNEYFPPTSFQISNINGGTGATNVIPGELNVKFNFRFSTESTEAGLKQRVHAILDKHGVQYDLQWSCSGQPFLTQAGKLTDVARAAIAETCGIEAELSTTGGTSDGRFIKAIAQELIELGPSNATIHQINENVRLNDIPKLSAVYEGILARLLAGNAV
UniProt P28335, sequence (whole entry, looked up): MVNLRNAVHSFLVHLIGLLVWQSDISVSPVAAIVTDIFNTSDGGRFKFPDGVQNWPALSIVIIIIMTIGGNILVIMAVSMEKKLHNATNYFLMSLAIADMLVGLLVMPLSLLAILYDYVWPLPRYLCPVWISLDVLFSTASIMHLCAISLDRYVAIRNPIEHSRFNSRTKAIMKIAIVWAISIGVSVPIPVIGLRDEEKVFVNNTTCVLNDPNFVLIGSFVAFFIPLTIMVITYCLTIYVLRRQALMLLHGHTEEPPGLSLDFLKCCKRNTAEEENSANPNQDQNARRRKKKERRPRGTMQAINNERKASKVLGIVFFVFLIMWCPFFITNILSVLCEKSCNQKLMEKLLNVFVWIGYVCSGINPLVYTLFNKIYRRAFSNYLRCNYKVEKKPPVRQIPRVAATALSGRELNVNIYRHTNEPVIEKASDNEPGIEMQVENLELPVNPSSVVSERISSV

| SMILES | tested on | assay | system | conditions | how to read | endpoint | value |
| --- | --- | --- | --- | --- | --- | --- | --- |
| COc1cc([C@@H]2c3cc4c(cc3[C@@H](O[C@@H]3O[C@@H]5CO[C@@H](C)O[C@H]5[C@H](O)[C@H]3O)[C@H]3COC(=O)[C@H]23)OCO4)cc(OC)c1O | ATP-binding cassette sub-family C member 2 (ABCC2, Homo sapiens, UniProt Q92887) | inhibitor |  | pH 7.5 |  | Ki | 17.9 ± 9.2 µM |
| C[C@H]1CN(c2n[nH]c3nc(N[C@H]4CC[C@H](NS(=O)(=O)CCC(F)(F)F)CC4)ncc23)CCO1 | ATP synthase peripheral stalk subunit OSCP, mitochondrial (Homo sapiens, UniProt P48047) | Kinobeads competition, item: ATP5O |  | 0.16 µM, unit not given | reference: vehicle | remaining binding | 1.08 |
| C[C@H](CS)C(=O)N1CCC[C@H]1C(=O)O | Succinyl-diaminopimelate desuccinylase (dapE, Neisseria meningitidis serogroup B, UniProt Q9JYL2) | enzyme activity, competitive inhibitor |  |  |  | Ki | 2.8 µM |
| N[C@@H](CS)C(=O)O | SclA protein (Enterococcus faecalis, UniProt Q831E3, H100K) |  |  |  |  | Ki | 1240 ± 150 µM |
| C[C@@H]1CC[C@@]2(OC1)O[C@H]1C[C@H]3[C@@H]4CC=C5C[C@@H](O)CC[C@]5(C)[C@H]4CC[C@]3(C)[C@H]1[C@@H]2C | Oxysterol-binding protein 2 (OSBP2, Homo sapiens, UniProt Q969R2) | [3H]-25-hydroxycholesterol binding, competitive inhibitor |  |  |  | Ki | > 100 µM |
| COc1cc(Nc2ncc(F)c(Nc3ccc4c(n3)NC(=O)C(C)(C)O4)n2)cc(OC)c1OC | NPBWR2 (Homo sapiens, UniProt P48146) |  |  |  |  | IC50 | > 10 µM |
| CO[C@H]1C[C@@H]2CC[C@@H](C)[C@@](O)(O2)C(=O)C(=O)N2CCCC[C@H]2C(=O)O[C@H]([C@H](C)C[C@@H]2CC[C@@H](OC(=O)NCCOCCOCCOCCOCCOCCOCCOCCOCCC(=O)N3CCc4cc(Cn5nc(-c6ccc7oc(N)nc7c6)c6c(N)ncnc65)ccc4C3)[C@H](OC)C2)C[C@@H](O)[C@H](C)/C=C(\C)[C@@H](O)[C@@H](OC)C(=O)[C@H](C)C[C@H](C)/C=C/C=C/C=C/1C |  |  | patients with advanced solid tumours | intravenous, 12 mg weekly, any grade |  | fatigue incidence | 41.7% |
| COc1ccc(N=Nc2ccc3[nH]cc(CCN(C)C)c3c2)cc1 | 5-hydroxytryptamine receptor 1D (HTR1D, Homo sapiens, UniProt P28221) | radioligand binding |  |  |  | Ki | 0.00347 µM |
| Cc1cccc(C)c1N1C(=O)CNC2(CCN(C)CC2)C1=O | HRH2 | binding |  |  |  | Ki | > 10 µM |
| CN[C@@H]1Cc2cccc3[nH]c(=O)n(c23)C1 | DRD4 | binding |  |  |  | Ki | 1.61 ± 0.297 µM |
| Cc1cccc(C)c1N1C(=O)[C@H](CO)NC2(CCN(C)CC2)C1=O | HRH2 | binding |  |  |  | Ki | > 10 µM |
| COc1cc2c3c(c1OC)-c1c(cccc1OC)CC3N(C)CC2 (racemic) | 5-hydroxytryptamine receptor 2C (HTR2C, Homo sapiens, UniProt P28335) | radioligand binding |  |  |  | Ki | 2.13 µM |
| O[C@H](CCCN1CCC(O)(c2ccc(Cl)cc2)CC1)c1ccc(F)cc1 | DRD4 |  |  |  |  | Ki | 0.263 ± 0.0486 µM |
| CC[C@H](C)[C@@H]1NC(=O)[C@@H]2CCCN2C(=O)[C@H](CC(C)C)NC(=O)[C@H](CC(C)C)NC(=O)CNC(=O)[C@@H](NC(=O)[C@@H](NC(=O)[C@H](CC(=O)O)NC(=O)CNC(=O)[C@@H](NC(=O)[C@H](C)NC(=O)CNC(=O)[C@H](CCCCN)NC(=O)[C@H](CC(C)C)NC(=O)[C@H](CC(C)C)NC(=O)[C@H](CCCCN)NC(=O)CNC(=O)[C@@H](NC(=O)[C@@H](N)CC(C)C)C(C)C)C(C)C)C(C)C)CSSC[C@@H](C(=O)O)NC1=O |  | RNA-seq, item: Fos mRNA | mouse traumatic brain injury, frontal cortex and hippocampus | dose not given | reference: TBI plus compound vs TBI | log2 fold change | -1.57 |
| COc1ccc(S(=O)(=O)N2CCCCC2)cc1C | Melanopsin (OPN4, Homo sapiens, UniProt Q9UHM6) | radioligand binding | CHO-OPN4 cell membranes |  |  | Ki | 0.013 µM |
| CC[C@H](C)[C@H](NC(=O)[C@H](Cc1ccccc1)NC(=O)[C@H](CCC(=O)O)NC(=O)[C@H](CCCNC(=N)N)NC(=O)[C@H](C)NC(=O)[C@H](C)NC(=O)[C@H](CCC(N)=O)NC(=O)[C@H](CCC(=O)O)NC(=O)[C@H](CCC(=O)O)NC(=O)[C@H](CC(C)C)NC(=O)[C@H](Cc1ccc(O)cc1)NC(=O)[C@H](CO)NC(=O)[C@H](CO)NC(=O)[C@@H](NC(=O)[C@H](CC(=O)O)NC(=O)[C@H](CO)NC(=O)[C@@H](NC(=O)[C@H](Cc1ccccc1)NC(=O)[C@@H](NC(=O)CNC(=O)[C@H](CCC(=O)O)NC(=O)[C@H](C)NC(=O)CCc1c[nH]cn1)[C@@H](C)O)[C@@H](C)O)C(C)C)C(=O)N[C@@H](C)C(=O)N[C@@H](Cc1c[nH]c2ccccc12)C(=O)N[C@@H](CC(C)C)C(=O)N[C@H](C(=O)N[C@@H](CCCNC(=N)N)C(=O)NCC(=O)N[C@@H](CCCNC(=N)N)C(=O)N[C@@H](CCCCNC(=O)COCCOCCNC(=O)COCCOCCNC(=O)CC[C@H](NC(=O)CCCCCCCCCCCCCCCCC(=O)O)C(=O)O)C(=O)NCC(=O)NCC(=O)N[C@@H](CO)C(=O)N[C@@H](CCCCNc1c(NCCCCCN(O)C(=O)CCC(=O)NCCCCCN(O)C(=O)CCC(=O)NCCCCCN(O)C(C)=O)c(=O)c1=O)C(=O)O)C(C)C [zirconium-89 labelled] |  |  | rat, intestine | sc, 3 nmol/kg, 24 h, ex vivo |  | tissue uptake | 0.16 %ID/g |

Repeated from above:
| SMILES | tested on | assay | system | conditions | how to read | endpoint | value |
| --- | --- | --- | --- | --- | --- | --- | --- |
| Cc1cccc(C)c1N1C(=O)CNC2(CCN(C)CC2)C1=O | HRH2 | binding |  |  |  | Ki | > 10 µM |
